Published values from different studies.
Compare with care: the assays were run in different laboratories.
Chain of UniProt P07949 (whole entry, unmodified, looked up): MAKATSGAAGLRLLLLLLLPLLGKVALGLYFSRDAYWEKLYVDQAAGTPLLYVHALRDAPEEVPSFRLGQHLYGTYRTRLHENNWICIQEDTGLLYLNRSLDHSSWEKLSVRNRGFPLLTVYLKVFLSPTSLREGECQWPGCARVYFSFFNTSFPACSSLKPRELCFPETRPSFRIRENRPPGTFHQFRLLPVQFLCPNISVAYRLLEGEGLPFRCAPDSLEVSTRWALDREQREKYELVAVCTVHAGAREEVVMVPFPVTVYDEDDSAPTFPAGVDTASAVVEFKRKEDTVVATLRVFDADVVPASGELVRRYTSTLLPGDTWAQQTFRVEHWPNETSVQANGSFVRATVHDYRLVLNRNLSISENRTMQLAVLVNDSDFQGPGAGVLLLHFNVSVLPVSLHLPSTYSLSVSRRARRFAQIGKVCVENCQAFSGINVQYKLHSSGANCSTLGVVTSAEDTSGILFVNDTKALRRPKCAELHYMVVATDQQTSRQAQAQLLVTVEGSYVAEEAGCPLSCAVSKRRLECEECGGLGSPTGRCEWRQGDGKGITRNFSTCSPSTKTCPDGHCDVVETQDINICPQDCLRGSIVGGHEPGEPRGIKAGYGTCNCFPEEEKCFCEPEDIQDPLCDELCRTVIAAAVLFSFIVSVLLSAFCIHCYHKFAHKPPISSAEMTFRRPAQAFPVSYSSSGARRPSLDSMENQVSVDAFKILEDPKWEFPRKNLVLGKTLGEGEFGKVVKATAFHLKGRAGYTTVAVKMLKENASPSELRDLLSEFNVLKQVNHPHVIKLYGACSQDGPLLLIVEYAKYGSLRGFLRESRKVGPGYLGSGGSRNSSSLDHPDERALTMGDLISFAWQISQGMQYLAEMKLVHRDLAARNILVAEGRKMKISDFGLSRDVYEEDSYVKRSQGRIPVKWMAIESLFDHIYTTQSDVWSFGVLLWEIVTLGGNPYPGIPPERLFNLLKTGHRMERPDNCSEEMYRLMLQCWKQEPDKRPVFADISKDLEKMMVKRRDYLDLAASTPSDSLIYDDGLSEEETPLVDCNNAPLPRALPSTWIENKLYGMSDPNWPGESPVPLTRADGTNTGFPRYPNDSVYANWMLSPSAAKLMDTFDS
Chain of UniProt O00418 (whole entry, looked up): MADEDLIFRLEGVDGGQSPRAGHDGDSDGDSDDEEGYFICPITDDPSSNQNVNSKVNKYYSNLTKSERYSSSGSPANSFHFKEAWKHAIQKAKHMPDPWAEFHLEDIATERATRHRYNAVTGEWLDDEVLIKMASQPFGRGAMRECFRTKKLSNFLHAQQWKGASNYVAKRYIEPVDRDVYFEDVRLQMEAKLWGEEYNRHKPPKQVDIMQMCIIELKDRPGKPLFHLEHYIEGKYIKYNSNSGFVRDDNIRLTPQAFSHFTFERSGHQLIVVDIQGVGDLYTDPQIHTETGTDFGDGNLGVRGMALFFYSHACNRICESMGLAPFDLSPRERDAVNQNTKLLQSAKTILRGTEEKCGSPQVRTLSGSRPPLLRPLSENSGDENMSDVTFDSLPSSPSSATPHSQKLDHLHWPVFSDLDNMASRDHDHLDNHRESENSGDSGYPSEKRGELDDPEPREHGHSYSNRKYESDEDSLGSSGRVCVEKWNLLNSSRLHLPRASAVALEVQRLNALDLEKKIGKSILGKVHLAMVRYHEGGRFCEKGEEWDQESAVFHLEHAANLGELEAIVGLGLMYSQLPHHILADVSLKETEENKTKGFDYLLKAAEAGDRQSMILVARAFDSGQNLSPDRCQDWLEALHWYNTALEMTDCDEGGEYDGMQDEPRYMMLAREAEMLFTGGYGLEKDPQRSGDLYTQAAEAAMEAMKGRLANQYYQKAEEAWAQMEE
Chain of UniProt P16234 (whole entry, looked up): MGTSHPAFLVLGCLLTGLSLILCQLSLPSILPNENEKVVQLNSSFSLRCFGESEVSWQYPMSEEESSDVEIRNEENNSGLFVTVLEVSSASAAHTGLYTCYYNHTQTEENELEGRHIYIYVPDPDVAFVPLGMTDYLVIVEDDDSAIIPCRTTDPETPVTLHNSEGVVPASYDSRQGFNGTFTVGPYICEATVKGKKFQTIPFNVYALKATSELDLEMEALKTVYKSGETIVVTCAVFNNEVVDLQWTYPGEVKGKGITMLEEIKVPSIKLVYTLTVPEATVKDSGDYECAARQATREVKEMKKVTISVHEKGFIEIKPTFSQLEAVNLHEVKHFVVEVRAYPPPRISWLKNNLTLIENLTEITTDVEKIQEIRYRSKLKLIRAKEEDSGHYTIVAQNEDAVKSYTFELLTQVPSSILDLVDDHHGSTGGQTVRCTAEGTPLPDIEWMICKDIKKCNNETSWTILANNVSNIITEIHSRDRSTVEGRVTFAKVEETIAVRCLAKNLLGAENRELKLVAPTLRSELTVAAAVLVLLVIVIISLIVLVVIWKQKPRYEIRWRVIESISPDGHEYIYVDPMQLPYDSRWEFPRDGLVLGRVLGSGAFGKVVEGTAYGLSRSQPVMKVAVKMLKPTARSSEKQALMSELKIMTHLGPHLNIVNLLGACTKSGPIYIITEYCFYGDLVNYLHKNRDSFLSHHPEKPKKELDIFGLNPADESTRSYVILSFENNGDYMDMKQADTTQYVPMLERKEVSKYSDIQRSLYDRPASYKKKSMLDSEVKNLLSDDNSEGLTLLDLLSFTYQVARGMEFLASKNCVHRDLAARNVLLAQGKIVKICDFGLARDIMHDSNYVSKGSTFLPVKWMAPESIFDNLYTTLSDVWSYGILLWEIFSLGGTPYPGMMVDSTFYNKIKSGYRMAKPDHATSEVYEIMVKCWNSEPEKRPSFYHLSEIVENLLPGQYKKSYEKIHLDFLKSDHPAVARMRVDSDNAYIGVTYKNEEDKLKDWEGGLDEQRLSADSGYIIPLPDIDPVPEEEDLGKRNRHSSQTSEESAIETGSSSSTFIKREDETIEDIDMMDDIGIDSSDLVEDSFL

CNc1ncc2c(/C=C/C(=O)N3CCC(OC)CC3)nn(Cc3cccc(C(F)(F)F)c3)c2n1  remaining activity (Platelet-derived growth factor receptor alpha (PDGFRA, Homo sapiens, UniProt P16234); enzyme activity, inhibitor, radiometric; 1 µM): 92%
Cc1cc([C@@H](C)Nc2ccccc2C(=O)O)c2nc(N3CCC(F)(F)CC3)c(C#N)c(=O)n2c1  remaining binding (Proto-oncogene tyrosine-protein kinase receptor Ret (RET, Homo sapiens, UniProt P07949); binding, competition with immobilised ligand; 10 µM): 100%
C=CC(=O)N1CCC(COCC(=O)N2CCN(c3nc(-c4cnc(N)nc4C(F)F)nc(N4CCOC[C@@H]4C)n3)CC2)CC1  remaining binding (Proto-oncogene tyrosine-protein kinase receptor Ret (RET, Homo sapiens, UniProt P07949, V804L); binding, competition with immobilised ligand; 1 µM): 82%
COc1cc(-c2cncc3c2CN(C)Cc2cc(N4CCNCC4)ccc2-3)cc(OC)c1OC  remaining activity (Eukaryotic elongation factor 2 kinase (EEF2K, Homo sapiens, UniProt O00418); enzyme activity, inhibitor; 1 µM): 109%

Repeated from above:
C=CC(=O)N1CCC(COCC(=O)N2CCN(c3nc(-c4cnc(N)nc4C(F)F)nc(N4CCOC[C@@H]4C)n3)CC2)CC1  remaining binding (Proto-oncogene tyrosine-protein kinase receptor Ret (RET, Homo sapiens, UniProt P07949, V804L); binding, competition with immobilised ligand; 1 µM): 82%
